Values quoted from earlier work that unrelated publications cite.
Compare with care: the assays were run in different laboratories. Numbers after ± are the reported error.

C#CCN[C@@H]1C=C[C@]2(O[C@H]([C@@H](CC)C(=O)[C@@H](C)[C@@H](O)[C@H](C)[C@@H]3O[C@@H]([C@@H](CC)C(=O)O)CC[C@@H]3C)[C@@H](C)C[C@H]2C)O[C@@]12CC[C@@](C)([C@H]1CC[C@](O)(CC)[C@H](C)O1)O2
activity ratio (breast cancer stem cells; relative to: salinomycin): ~10 fold

Clc1ccccc1C(c1ccccc1)(c1ccccc1)n1cccn1
microglial activation and neurotoxicity (microglia; inhibitor; concentration not given, added: amyloid-beta oligomers): inhibited

CCCCCCCC(=O)NCC(=O)N[C@@H](C)C(=O)N[C@@H](CC(C)C)C(=O)N[C@](C)(CC)C(=O)N[C@@H](C)C(=O)N[C@H](C(=O)N[C@H](CO)CC(C)C)[C@@H](C)CC
IC50 (A549; cell growth, MTT): 4000 nM

C=CCc1cc(OC)c(OC)c(OC)c1OC
IC50 (HT-29; cell growth): 298000 nM

F[P-](F)(F)(F)(F)F.NCCN.[Cl][Ru+].c1ccc(-c2ccccc2)cc1
IC50 (MDA-MB-231; cell viability, MTT; 24 h): 62000 nM

CC1=C(C)C(=O)OC(C(C)(O)C2(O)CCC3(O)C4CC5OC56CC=CC(=O)C6(C)C4CCC32C)C1 (stereo not drawn)
IC50 (Hep G2; cell growth): 640 nM

CSC([S-])=NN=Cc1ccc(O)cc1[O-].[C-]#[O+].[Ru+2].c1ccc(P(c2ccccc2)c2ccccc2)cc1.c1ccc(P(c2ccccc2)c2ccccc2)cc1
apoptotic activity (MCF7; 1 day): 41.2 µM

C[C@H](NC(=O)[C@H](Cc1c[nH]cn1)NC(=O)[C@H](CO)NC(=O)[C@@H](N)CC(=O)O)C(=O)N[C@@H](CCCCN)C(=O)N[C@@H](CCCNC(=N)N)C(=O)N[C@@H](Cc1c[nH]cn1)C(=O)N[C@@H](Cc1c[nH]cn1)C(=O)NCC(=O)N[C@@H](Cc1ccc(O)cc1)C(=O)N[C@@H](CCCCN)C(=O)N[C@@H](CCCNC(=N)N)C(=O)N[C@@H](CCCCN)C(=O)N[C@@H](Cc1ccccc1)C(=O)N[C@@H](Cc1c[nH]cn1)C(=O)N[C@@H](CCC(=O)O)C(=O)N[C@@H](CCCCN)C(=O)N[C@@H](Cc1c[nH]cn1)C(=O)N[C@@H](Cc1c[nH]cn1)C(=O)N[C@@H](CO)C(=O)N[C@@H](Cc1c[nH]cn1)C(=O)N[C@@H](CCCNC(=N)N)C(=O)NCC(=O)N[C@@H](Cc1ccc(O)cc1)C(=O)O
inhibition (human gingival fibroblasts; IL6 production; 3.3 µM, added: Porphyromonas gingivalis outer-membrane protein 10.0 µg/mL): 37%

CC(C)=CCC/C(C)=C/C[P+](c1ccccc1)(c1ccccc1)c1ccccc1
GI50 (PC-3; cell growth): 1200 nM

CC(C)c1c(O)c(O)c2c(c1O)C(=O)C(O)=C1C(C)(C)CCCC12C (stereo not drawn)
GI50 (MCF7): 5500 ± 800 nM

CC1=C(C)C(=O)OC(C(C)(O)C2(O)CCC3(O)C4CC5OC56C(O)C=CC(=O)C6(C)C4CCC32C)C1 (stereo not drawn)
IC50 (MCF7; cell growth): 1790 nM

Cc1cc2c(c(=O)o1)C=C1CC[C@H](C(C)Cn3cnc(N)c4ncnc3-4)C[C@@H]1O2 (stereo partly drawn)
EC50 (MC65 Tet-Off; protection from amyloid beta toxicity): 150 nM

Repeated from above:
C=CCc1cc(OC)c(OC)c(OC)c1OC
IC50 (HT-29; cell growth): 298000 nM

F[P-](F)(F)(F)(F)F.NCCN.[Cl][Ru+].c1ccc(-c2ccccc2)cc1
IC50 (MDA-MB-231; cell viability, MTT; 24 h): 62000 nM
